Literature values that unrelated publications cite.
Lines come from different studies, so protocols differ. Numbers after ± are the reported error.
Chain of UniProt P21728 (whole entry, looked up): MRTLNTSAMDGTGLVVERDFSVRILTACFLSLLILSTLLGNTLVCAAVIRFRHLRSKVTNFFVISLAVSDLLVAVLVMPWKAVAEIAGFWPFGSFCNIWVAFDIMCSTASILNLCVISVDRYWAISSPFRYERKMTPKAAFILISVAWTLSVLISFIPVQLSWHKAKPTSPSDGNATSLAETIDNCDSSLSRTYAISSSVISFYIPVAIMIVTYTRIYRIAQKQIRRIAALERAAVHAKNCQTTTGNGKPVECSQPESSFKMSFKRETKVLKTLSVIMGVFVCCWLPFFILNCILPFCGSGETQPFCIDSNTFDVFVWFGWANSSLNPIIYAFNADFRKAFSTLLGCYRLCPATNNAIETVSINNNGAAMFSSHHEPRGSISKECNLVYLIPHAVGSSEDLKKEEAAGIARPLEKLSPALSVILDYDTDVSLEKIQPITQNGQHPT
Chain of UniProt P25021 (whole entry, looked up): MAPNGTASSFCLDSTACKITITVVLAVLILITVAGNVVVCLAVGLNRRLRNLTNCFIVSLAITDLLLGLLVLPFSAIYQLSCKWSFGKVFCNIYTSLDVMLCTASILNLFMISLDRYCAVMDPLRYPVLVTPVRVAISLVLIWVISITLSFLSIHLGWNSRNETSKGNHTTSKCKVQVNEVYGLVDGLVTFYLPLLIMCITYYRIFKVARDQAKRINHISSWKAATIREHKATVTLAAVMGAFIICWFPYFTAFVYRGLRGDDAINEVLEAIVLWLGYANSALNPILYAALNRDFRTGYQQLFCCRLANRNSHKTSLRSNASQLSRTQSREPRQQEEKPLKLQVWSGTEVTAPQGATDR

Compound = Cc1cc(-c2ccc(C(F)(F)F)cn2)[nH]c1C(=O)N[C@@H](CN)c1ncc(CO)s1; target or system = HIV-1 HXB2; test = viral replication; quantity = EC50; value = < 0.2 µM
Compound = CCC[C@H](NC(=O)[C@@H]1[C@H]2CCC[C@H]2CN1C(=O)[C@@H](NC(=O)[C@@H](NC(=O)c1cnccn1)C1CCCCC1)C(C)(C)C)C(=O)C(=O)NC1CC1; target or system = hepatitis C virus; test = viral replication; system = genotype 1b replicon; quantity = EC50; value = 0.35 to 0.56 µM
Compound = C=CCN(CC=C)CCc1c[nH]c2ccc(Br)cc12; target or system = HRH2 (Homo sapiens, UniProt P25021); quantity = Ki; value = > 10 µM
Compound = CCCCCCCCCCSCC(P(=O)(O)O)P(=O)(O)O; target or system = Trypanosoma cruzi; test = growth; system = amastigotes; quantity = EC50; value = > 20 µM
Compound = C=C1CC[C@H](O)C/C1=C/C=C1\CCC[C@]2(C)[C@@H]([C@H](C)/C=C/[C@H](C)C(C)C)CC[C@@H]12; target or system = hepatitis C virus; test = viral replication; system = HCV genotype 1b full-length replicon cells, genotype 1b; quantity = EC50; value = 3.8 µM
Compound = CC(C)[C@H](N)C(=O)O[C@@H]1[C@@H](CO)O[C@@H](n2ccc(N)nc2=O)[C@]1(C)O; target or system = hepatitis C virus; test = viral replication; system = genotype 1b replicon; quantity = EC50; value = 1.23 ± 0.52 µM
Compound = Cn1c(Cn2ccc(C(F)(F)F)c(Oc3cc(Cl)cc(C#N)c3)c2=O)n[nH]c1=O; target or system = HIV-1; test = viral replication; system = MT-4, F227L/V106A double mutant; quantity = EC50; value = 67.8 ± 25.2 µM
Compound = NC(=O)c1ncn([C@@H]2O[C@H](CO)[C@@H](O)[C@H]2O)n1; target or system = measles virus; test = viral replication, MTT; system = Edmonston; quantity = EC50; value = 5.2 µM
Compound = CCCCCCCCCCCCNCC(P(=O)(O)O)P(=O)(O)O; target or system = Trypanosoma cruzi; test = growth; system = amastigotes; quantity = EC50; value = 0.67 µM
Compound = Clc1ccc(Cn2c(CN3CCCC3)nc3ccccc32)cc1; target or system = hepatitis C virus; test = viral replication; system = Huh-7.5, genotype 2a; quantity = EC50; value = 8 µM
Compound = CCCCCCNCC(P(=O)(O)O)P(=O)(O)O; target or system = Trypanosoma cruzi; test = growth; system = amastigotes; quantity = EC50; value = 0.84 µM
Compound = Cc1nc(N(C)C(=O)Cc2ccc(-c3ccccn3)cc2)sc1S(N)(=O)=O; target or system = herpes simplex virus 1; test = viral replication; system = helicase-primase inhibitor-resistant; quantity = EC50; value = > 248 µM
Compound = CCCCCCCNCC(P(=O)(O)O)P(=O)(O)O; target or system = Trypanosoma cruzi; test = growth; system = amastigotes; quantity = EC50; value = 10 µM
Compound = C=CCN(CC=C)CCc1c[nH]c2ccccc12; target or system = DRD1 (Homo sapiens, UniProt P21728); test = binding; system = cloned human receptor; setting = added: [3H]SCH23390; quantity = Ki; value = > 10 µM
